Published values of several laboratories.
Each line is one published result; not all experiments were run side by side. ± gives the spread as reported.
Organism: Escherichia coli

With `CCOC(=O)c1sc(N/N=C/c2c(-c3ccccc3)nc3ncccn23)nc1C` the inhibition zone was 13 mm (microbial growth, well diffusion; ATCC25922; 100 µg/mL).
The inhibition zone of `Cc1cc(O)c2c(c1)C(=O)c1cc3oc(=O)cc(C)c3c(O)c1C2=O` is reported as 8 mm (microbial growth, disc diffusion; MTCC739; 100 µg/disc).
`C=C1CC(OC(=O)C(C)(O)CCl)C2C(=C)C(=O)OC2C2C1CC(O)C2(O)CCl` (centres unmarked) gave an inhibition zone of 9 ± 1.3 mm (concentration not given).
The inhibition zone of `O=C(NC(=S)Nc1nc(-c2ccccc2)cc(-c2ccc(Cl)cc2)n1)c1ccc(Cl)cc1` is reported as 6 mm (concentration not given, 24 h, 37 °C).
For `CCOC(=O)c1cnc(N/N=C/c2c(-c3ccc(Br)cc3)nc3ncccn23)s1`, the inhibition zone was 14 mm (microbial growth, well diffusion; ATCC25922; 100 µg/mL).
With `S=c1n(CN2CCN(Cc3ccccc3)CC2)nc(C23CC4CC(CC(C4)C2)C3)n1-c1ccccc1` the inhibition zone was 12 mm (microbial growth, disc diffusion; IFO3301; 200 µg/disc, 24 h).
With `COc1ccc(NC(=O)CSc2nc3ccccc3c(=O)n2-c2ccc(S(N)(=O)=O)cc2)cc1` the inhibition zone was 13 mm (microbial growth, well diffusion; ATCC25922; 500 µg/mL, 24 h).
`Cc1ccc(NC(=O)C2C(=O)C(c3ccccc3)c3ccc4c(c32)C(=O)c2ccccc2C4=O)cc1` (centres unmarked) gave an inhibition zone of 8 mm (microbial growth, disc diffusion; MTCC739; 100 µg/mL, 24 h).
For `COc1cc(NC(=O)CSc2nc3ccccc3c(=O)n2-c2ccc(S(N)(=O)=O)cc2)cc(OC)c1`, the inhibition zone was 16 mm (microbial growth, well diffusion; ATCC25922; 500 µg/mL, 24 h).
`Cc1cc(O)cc2c1C(=O)c1c(cc3oc(=O)cc(-c4ccc(Cl)cc4)c3c1O)C2=O` has an inhibition zone of 16 mm (microbial growth, disc diffusion; MTCC739; 100 µg/disc).
`FC(F)(F)c1cc(CSc2nnc(C34CC5CC(CC(C5)C3)C4)n2-c2ccccc2)cc(C(F)(F)F)c1` has an inhibition zone of 20 mm (microbial growth, disc diffusion; IFO3301; 200 µg/disc, 24 h).
The inhibition zone of `COc1c2c(cc3oc(=O)cc(-c4ccc(O)cc4)c13)C(=O)c1cc(C)cc(O)c1C2=O` is reported as 12 mm (microbial growth, disc diffusion; MTCC739; 100 µg/disc).
For `O=C1c2ccccc2C(=O)c2c1ccc1c2C(C(=O)Nc2ccc(Cl)cc2)C(=O)C1c1ccccc1` (centres unmarked), the inhibition zone was 8 mm (microbial growth, disc diffusion; MTCC739; 100 µg/mL, 24 h).
`CCOC(=O)c1cnc(N/N=C/c2c(-c3ccc(F)cc3)nc3ncccn23)s1` has an inhibition zone of 15 mm (microbial growth, well diffusion; ATCC25922; 100 µg/mL).
For `COc1ccccc1N1CCN(Cn2nc(C34CC5CC(CC(C5)C3)C4)n(-c3ccccc3)c2=S)CC1`, the inhibition zone was 16 mm (microbial growth, disc diffusion; IFO3301; 200 µg/disc, 24 h).
`COc1cc(OC)c2c(c1)C(=O)c1cc3oc(=O)cc(-c4ccc(Cl)cc4)c3c(O)c1C2=O` has an inhibition zone of 16 mm (microbial growth, disc diffusion; MTCC739; 100 µg/disc).
The inhibition zone of `Cn1c(C23CC4CC(CC(C4)C2)C3)nn(CCN2CCCCC2)c1=S` is reported as 14 mm (microbial growth, disc diffusion; IFO3301; 200 µg/disc, 24 h).
`CCOc1ccc(NC(=O)CSc2nc3ccccc3c(=O)n2-c2ccc(S(N)(=O)=O)cc2)cc1` has an inhibition zone of 12 mm (microbial growth, well diffusion; ATCC25922; 500 µg/mL, 24 h).
`Cc1c2c(cc3oc(=O)cc(-c4ccc(O)cc4)c13)C(=O)c1cccc(O)c1C2=O` has an inhibition zone of 10 mm (microbial growth, disc diffusion; MTCC739; 100 µg/disc).
`CCc1ccccc1NC(=O)CSc1nc2ccccc2c(=O)n1-c1ccc(S(N)(=O)=O)cc1` gave an inhibition zone of 30 mm (microbial growth, well diffusion; ATCC25922; 500 µg/mL, 24 h).
`S=c1n(CN2CCN(c3ccccn3)CC2)nc(C23CC4CC(CC(C4)C2)C3)n1-c1ccccc1` gave an inhibition zone of 19 mm (microbial growth, disc diffusion; IFO3301; 200 µg/disc, 24 h).
The inhibition zone of `CCc1ccc(NC(=O)CSc2nc3ccccc3c(=O)n2-c2ccc(S(N)(=O)=O)cc2)cc1` is reported as 14 mm (microbial growth, well diffusion; ATCC25922; 500 µg/mL, 24 h).
For `Cc1cc(O)cc2c1C(=O)c1c(cc3oc(=O)cc(C)c3c1O)C2=O`, the inhibition zone was 10 mm (microbial growth, disc diffusion; MTCC739; 100 µg/disc).

A few entries again:
`C=C1CC(OC(=O)C(C)(O)CCl)C2C(=C)C(=O)OC2C2C1CC(O)C2(O)CCl` (centres unmarked) gave an inhibition zone of 9 ± 1.3 mm (concentration not given).
The inhibition zone of `O=C(NC(=S)Nc1nc(-c2ccccc2)cc(-c2ccc(Cl)cc2)n1)c1ccc(Cl)cc1` is reported as 6 mm (concentration not given, 24 h, 37 °C).
For `CCOC(=O)c1cnc(N/N=C/c2c(-c3ccc(Br)cc3)nc3ncccn23)s1`, the inhibition zone was 14 mm (microbial growth, well diffusion; ATCC25922; 100 µg/mL).
